Assay results of several laboratories.
Compare with care: the assays were run in different laboratories. “And” joins repeats or separate records; there may be more than shown. ± marks the error that the study gave.

C[C@H]1CN(C(=O)CC#N)[C@]12CCN(c1ncnc3[nH]ccc13)C2
Cmax at NOAEL (dog, male; oral, 3 mg/kg repeated, 3 months): 2280 ng/mL

CC(C)C[C@H](NC(=O)[C@H](CCCCN)NC(=O)OCC1c2ccccc2-c2ccccc21)C(=O)N[C@H](C(=O)N[C@@H](Cc1ccccc1)C(=O)N[C@@H](Cc1ccccc1)C(=O)N[C@@H](CCCCN)C(=O)NCC(=O)N[C@@H](Cc1ccccc1)C(=O)N[C@@H](C)C(=O)N[C@@H](Cc1c[nH]c2ccccc12)C(=O)N[C@@H](CC(N)=O)C(=O)N[C@H](C(=O)N[C@H]1CSSC[C@@H](C(=O)N[C@@H](Cc2c[nH]cn2)C(=O)N[C@@H](CCCNC(=N)N)C(=O)N[C@@H](CCCNC(=N)N)C(=O)N[C@@H](C)C(=O)N[C@@H](CC(N)=O)C(N)=O)NC(=O)[C@H](C(C)C)NC(=O)[C@H](CCCNC(=N)N)NC(=O)[C@H](C(C)C)NC(=O)CNC(=O)[C@H](CC(N)=O)NC(=O)[C@H](CCCNC(=N)N)NC(=O)[C@H](Cc2ccc(O)cc2)NC(=O)[C@H](C(C)C)NC1=O)C(C)C)C(C)C
haematocrit (ICR mice, blood; intraperitoneal, 10 mg/kg, day 5): 39.9 ± 0.58%

CCc1ccc(CC/C=C/c2ccc3c(c2)C(=O)CC3)cc1
Fibrinogen (Sprague-Dawley rat, male; oral, 30 mg/kg/day, 14 days): 3.1 g/L

O=S(=O)(Nc1ccccc1)c1ccc(NC(=S)Nc2ccccc2)cc1
mean corpuscular haemoglobin (female mouse, blood; oral, 20 mg/kg daily, 14 days): 11.8 pg

COc1ccc(-c2c(-c3ccc(C#N)c(F)c3)nc(N3CCC(N)CC3)n(C)c2=O)cc1F
treatment-related adverse event incidence (item: Pruritus; human patients; oral, dose not given, grade 3 to 4, dose escalation, NG): 0%

O=C(O)CCCOc1ccc(F)cc1-c1cc(-c2ccccc2C(F)(F)F)n(-c2ccccc2)n1
fibrinogen (female Crl:CD(SD) rats; intravenous, 25 µg/kg, 14 d): 190 mg/dL and 201 mg/dL and 186 mg/dL and 213 mg/dL and 197 mg/dL

COc1ncnn2ccc(-c3cnc4nc(C)n(Cc5nnc([C@@H](C)F)o5)c4c3)c12
patients with tumour lysis syndrome (human; oral, dose not given, grade 5): 0%

C[C@@H]1OC(=O)NN=C1c1ccc(-c2ccc(F)cc2)c(C(F)(F)F)c1
patients with adverse event (phase I trial, item: abdominal distension all grades; human patients; 20 mg loading then 1 mg daily): 50%

COc1ncccc1-c1cnn2ccc(N3CCN(C(=O)OC(C)C)CC3)nc12
drug concentration (mouse nerve ligation model, brain; oral, 10 mg/kg, 120 min after last dose, repeat dosing day 5): 5.8 µM

CC(=O)c1c(C)c2cnc(Nc3ccc(C4CCN(CCS(C)(=O)=O)CC4)cn3)nc2n(C2CCCC2)c1=O
MRT (human, plasma; oral, 50 mg twice daily, day 1, single dose, with: letrozole): 4.52 h

O=C(Oc1ccc(-n2cccc2)cc1)[c-]1cccc1.[Fe+2].c1cc[cH-]c1
reduction potential (cyclic voltammetry; acetonitrile; concentration not given, scan rate 100 mV/s, with: Ag/AgCl reference): 649 mV

COc1cc2c(Oc3ccc4[nH]c(C)cc4c3F)ccnc2cc1OCC1(N)CC1
Tinnitus incidence (paediatric refractory sarcoma patients; 12 mg): 18.2%

CC[C@H](C)CCCCC(=O)N[C@@H](CCN)C(=O)N[C@H](C(=O)N[C@@H](CCN)C(=O)N[C@H]1CCNC(=O)[C@H]([C@@H](C)O)NC(=O)[C@H](CCN)NC(=O)[C@H](CCN)NC(=O)[C@H](CC(C)C)NC(=O)[C@@H](Cc2ccccc2)NC(=O)[C@H](CCN)NC1=O)[C@@H](C)O
steady-state concentration at 6 h (critically ill patients, plasma; dose not given, median, fifth infusion): 2.7 µg/mL

CN1CC[C@@H](c2c(O)cc(O)c3c(=O)cc(-c4ccc(C(F)(F)F)cc4Cl)oc23)[C@@H]1CO
patients with adverse event (item: Epistaxis; relapsed AML; oral, 100 mg, grade 3-4, intermittent dosing): 0%

CC[C@H](C)[C@H](NC(=O)[C@H](CC(C)C)NC(=O)[C@H](Cc1c[nH]c2ccccc12)NC(=O)[C@H](CCC(N)=O)NC(=O)[C@@H](NC(=O)[C@H](Cc1ccccc1)NC(=O)[C@H](C)NC(=O)[C@H](CCCCNC(=O)COCCOCCNC(=O)COCCOCCNC(=O)CC[C@H](NC(=O)CCCCCCCCCCCCCCCCCCC(=O)O)C(=O)O)NC(=O)[C@H](CCC(N)=O)NC(=O)[C@H](C)NC(=O)[C@@H](NC(=O)[C@H](CCCCN)NC(=O)[C@H](CC(=O)O)NC(=O)[C@H](CC(C)C)NC(=O)C(C)(C)NC(=O)[C@@H](NC(=O)[C@H](CO)NC(=O)[C@H](Cc1ccc(O)cc1)NC(=O)[C@H](CC(=O)O)NC(=O)[C@H](CO)NC(=O)[C@@H](NC(=O)[C@H](Cc1ccccc1)NC(=O)[C@@H](NC(=O)CNC(=O)[C@H](CCC(=O)O)NC(=O)C(C)(C)NC(=O)[C@@H](N)Cc1ccc(O)cc1)[C@@H](C)O)[C@@H](C)O)[C@@H](C)CC)[C@@H](C)CC)C(C)C)C(=O)N[C@@H](C)C(=O)NCC(=O)NCC(=O)N1CCC[C@H]1C(=O)N[C@@H](CO)C(=O)N[C@@H](CO)C(=O)NCC(=O)N[C@@H](C)C(=O)N1CCC[C@H]1C(=O)N1CCC[C@H]1C(=O)N1CCC[C@H]1C(=O)N[C@@H](CO)C(N)=O
AUC(0-tau) (human, plasma; subcutaneous, 5 mg first dose, week 1, 5 mg group, tau 168 h, geometric mean): 48800 ng·h/mL

CN1C(=O)[C@@H](NC(=O)c2nnc(Cc3ccccc3)[nH]2)COc2cccnc21
participants with TEAE leading to death (phase I single ascending dose; human, male and female; oral, 100 mg, fasted): 0%

O=c1oc(-c2cccc([N+](=O)[O-])c2)ns1
hydrolysis half-life (RPMI medium; concentration not given, 37 °C, spontaneous hydrolysis): 0.34 h

CN[C@@H](C)C(=O)N[C@H]1CN(S(=O)(=O)c2cccc(S(=O)(=O)N3CC[C@H]4CC[C@@H](C(=O)NC(c5ccccc5)c5ccccc5)N4C(=O)[C@@H](NC(=O)[C@H](C)NC)C3)c2)CC[C@H]2CC[C@@H](C(=O)NC(c3ccccc3)c3ccccc3)N2C1=O
treatment-related pruritus incidence (patients with advanced solid tumours; 4 mg, phase I monotherapy): 0%

COc1cc2nccc(Oc3ccc(NC(=O)c4cc5c(n(-c6ccccc6)c4=O)CCCC5=O)nc3)c2cc1OC
fatal drug-related TEAEs (relapsed/refractory AML patients; oral, 3 mg once daily): 0%

CC(C)=CC1C(C(=O)OC(C#N)c2cccc(Oc3ccccc3)c2)C1(C)C (centres unmarked)
enzyme contribution to clearance (item: CYP2C8; human, age 5 years): 5.61%

COc1ccc(C[C@@H]2NC(=O)[C@H]([C@@H](C)O)NC(=O)[C@@H]3[C@@H]4CCN3C(=O)[C@@H]3Cc5cn(c6ccc(F)cc56)CCCCCCN(Cc5ccc(cc5)CCNC(=O)[C@]5(C)CCCN5C2=O)C(=O)CCC(=O)N[C@@H](C)C(=O)N[C@H](CNC(=O)CCCCC[N+](C)(C)C)C(=O)N[C@@H](Cc2cccc(c2)CNC(=O)CO4)C(=O)N3)cc1
participants with adverse event (item: Hyperhidrosis; humans; concentration not given, Study-003): 3.2%

O=c1cc(-c2ccc(O)c(O)c2)oc2cc(O)cc(O)c12
faecal excreted amount (male Sprague-Dawley rat, lean; oral, 100 mg/kg of neohesperidin, 12 to 24 h): 619 ± 513 ng

C[C@]1(CO)Cc2ncn(-c3ccc(C#N)c(Cl)c3)c2C(=O)O1
subjects with drug-related headache (human, Chinese; 3 mg single dose): 16.7%

C[C@]1(O)C[C@@](N)(c2ccc(-c3nc4n(c3-c3ccccc3)COc3ccncc3-4)cc2)C1
patients with serious AE (human, advanced or metastatic solid tumours; 24 mg intermittent, phase I dose escalation): 50%

O=C(Nc1ccccc1)C1CCN(C(=O)Oc2cccnc2)CC1
change in contentment score (Bond-Lader VAS; healthy women; oral, 60 mg; relative to: pre-dose baseline, direction not given): 12

CCC[C@@](N)(CO)CCc1ccc(OCCCCCC(C)C)cc1
Tmax (C57BL/6 mice; oral, 50 mg/kg): 2 h

COc1cccc(Oc2ccccc2NC(=O)CNC(=O)c2cccc3ccccc23)c1
mean corpuscular volume (esterase-deficient SCID mice, male, blood; oral, 40 mg/kg/day, 14 days, toxicity study): 47 fL and 46 fL and 44 fL

CO[C@H]1C[C@@H]2CC[C@@H](C)[C@@](O)(O2)C(=O)C(=O)N2CCCC[C@H]2C(=O)O[C@H]([C@H](C)C[C@@H]2CC[C@@H](OC(=O)NCCOCCOCCOCCOCCOCCOCCOCCOCCC(=O)N3CCc4cc(Cn5nc(-c6ccc7oc(N)nc7c6)c6c(N)ncnc65)ccc4C3)[C@H](OC)C2)C[C@@H](O)[C@H](C)/C=C(\C)[C@@H](O)[C@@H](OC)C(=O)[C@H](C)C[C@H](C)/C=C/C=C/C=C/1C
fatigue incidence (patients with advanced solid tumours; intravenous, 8 mg weekly, grade 3 or higher): 0%

CCN(CCO)CCCC(C)Nc1ccnc2cc(Cl)ccc12 (centres unmarked)
patients with adverse event (item: Anorexia grade 1; newly diagnosed glioblastoma patients; oral, 400 mg/dose, with radiotherapy and temozolomide): 29%

O=C(c1ccc(F)c(F)c1Nc1ccc(I)cc1F)N1CC(O)([C@@H]2CCCCN2)C1
adverse events (human patients; oral, 1 mg/kg, age ≥18 years): 100%

O=C1Nc2cc3[nH]nc(-c4ccncc4)c3cc2CN1Cc1ccccc1
patients with headache (CTCAE v4.03; advanced solid tumour patients; intravenous, 1.8 mg/kg, schedules 1/2): 0%

CC(C)[C@@H]1NC(=O)CNC(=O)[C@H](CC(N)=O)NC(=O)[C@H](CCCNC(=N)N)NC(=O)[C@H](Cc2ccc(O)cc2)NC(=O)[C@H](C(C)C)NC(=O)[C@@H](NC(=O)[C@@H](NC(=O)[C@H](CC(N)=O)NC(=O)[C@H](Cc2c[nH]c3ccccc23)NC(=O)[C@H](C)NC(=O)[C@H](Cc2ccccc2)NC(=O)CN)C(C)C)CSSC[C@@H](C(=O)N[C@@H](Cc2cnc[nH]2)C(=O)N[C@@H](CCCNC(=N)N)C(=O)N[C@@H](CCCNC(=N)N)C(=O)N[C@@H](C)C(=O)N[C@@H](CC(N)=O)C(N)=O)NC(=O)[C@H](C(C)C)NC(=O)[C@H](CCCNC(=N)N)NC1=O
mean platelet volume (ICR mice, blood; intraductal mammary, 5 mg/kg, day 5): 6.6 ± 0.3 fL

CCCCCCCCCCCCCCCC(=O)N[C@@H](CCC(=O)NCCCC[C@H](NC(=O)[C@H](CC(=O)O)NC(=O)[C@H](CO)NC(=O)[C@@H](NC(=O)[C@H](Cc1ccccc1)NC(=O)[C@@H](NC(=O)CNC(=O)[C@H](CCC(N)=O)NC(=O)[C@H](CO)NC(=O)[C@@H](N)Cc1c[nH]cn1)[C@@H](C)O)[C@@H](C)O)C(=O)N[C@@H](CO)C(=O)N[C@@H](CCC(=O)O)C(=O)N[C@@H](Cc1ccc(O)cc1)C(=O)N[C@@H](CC(C)C)C(=O)N[C@@H](CC(=O)O)C(=O)N[C@@H](CO)C(=O)N[C@@H](CCC(=O)O)C(=O)N[C@@H](CCCNC(=N)N)C(=O)N[C@@H](C)C(=O)N[C@@H](CCCNC(=N)N)C(=O)N[C@@H](CC(=O)O)C(=O)N[C@@H](Cc1ccccc1)C(=O)N[C@H](C(=O)N[C@@H](C)C(=O)N[C@@H](Cc1c[nH]c2ccccc12)C(=O)N[C@@H](CC(C)C)C(=O)N[C@@H](CCC(=O)O)C(=O)N[C@@H](C)C(=O)NCC(=O)NCC(=O)O)C(C)C)C(=O)O
injection site bruising (human, CrCl < 20 mL/min; sc, 100 µg single dose): 0%

COc1ccc2c(c[n+](C)c3c4cc5c(cc4ccc23)OCO5)c1OC
AUC(0-inf) fold increase (rat, plasma; dose not given, with: ketoconazole; relative to: with over without ketoconazole): 1.5

Cc1ccc(S(=O)(=O)Nc2c(N[C@H]3CC[C@H](NC(=O)Nc4ccc(F)c(Cl)c4)CC3)c(=O)c2=O)cc1
AUC(0-inf) (rat, plasma; oral, 20 mg/kg): 0.24 µM·h

Some of these lines once more:
CC(C)C[C@H](NC(=O)[C@H](CCCCN)NC(=O)OCC1c2ccccc2-c2ccccc21)C(=O)N[C@H](C(=O)N[C@@H](Cc1ccccc1)C(=O)N[C@@H](Cc1ccccc1)C(=O)N[C@@H](CCCCN)C(=O)NCC(=O)N[C@@H](Cc1ccccc1)C(=O)N[C@@H](C)C(=O)N[C@@H](Cc1c[nH]c2ccccc12)C(=O)N[C@@H](CC(N)=O)C(=O)N[C@H](C(=O)N[C@H]1CSSC[C@@H](C(=O)N[C@@H](Cc2c[nH]cn2)C(=O)N[C@@H](CCCNC(=N)N)C(=O)N[C@@H](CCCNC(=N)N)C(=O)N[C@@H](C)C(=O)N[C@@H](CC(N)=O)C(N)=O)NC(=O)[C@H](C(C)C)NC(=O)[C@H](CCCNC(=N)N)NC(=O)[C@H](C(C)C)NC(=O)CNC(=O)[C@H](CC(N)=O)NC(=O)[C@H](CCCNC(=N)N)NC(=O)[C@H](Cc2ccc(O)cc2)NC(=O)[C@H](C(C)C)NC1=O)C(C)C)C(C)C
haematocrit (ICR mice, blood; intraperitoneal, 10 mg/kg, day 5): 39.9 ± 0.58%

CCc1ccc(CC/C=C/c2ccc3c(c2)C(=O)CC3)cc1
Fibrinogen (Sprague-Dawley rat, male; oral, 30 mg/kg/day, 14 days): 3.1 g/L

O=S(=O)(Nc1ccccc1)c1ccc(NC(=S)Nc2ccccc2)cc1
mean corpuscular haemoglobin (female mouse, blood; oral, 20 mg/kg daily, 14 days): 11.8 pg

COc1ccc(-c2c(-c3ccc(C#N)c(F)c3)nc(N3CCC(N)CC3)n(C)c2=O)cc1F
treatment-related adverse event incidence (item: Pruritus; human patients; oral, dose not given, grade 3 to 4, dose escalation, NG): 0%

O=C(O)CCCOc1ccc(F)cc1-c1cc(-c2ccccc2C(F)(F)F)n(-c2ccccc2)n1
fibrinogen (female Crl:CD(SD) rats; intravenous, 25 µg/kg, 14 d): 190 mg/dL and 201 mg/dL and 186 mg/dL and 213 mg/dL and 197 mg/dL
